# Published values from different studies.
# Each numbered part is a random draw from the data of one study; scales do not carry over between parts. Positions count from the first letter of the parent shown.

# Sample 1
# Target: PABPC1L2, full length, GST fusion (mouse, UniProt A0ABA7IW68)
# Technique: RNAcompete
# Form: RNA
# Sample: in vitro
# Tested at: 20 nM
# Setting: 7-mer, probes averaged, single round
# Relative to: mean of 7-mers
# Reading: higher = stronger binding
# Construct (chain): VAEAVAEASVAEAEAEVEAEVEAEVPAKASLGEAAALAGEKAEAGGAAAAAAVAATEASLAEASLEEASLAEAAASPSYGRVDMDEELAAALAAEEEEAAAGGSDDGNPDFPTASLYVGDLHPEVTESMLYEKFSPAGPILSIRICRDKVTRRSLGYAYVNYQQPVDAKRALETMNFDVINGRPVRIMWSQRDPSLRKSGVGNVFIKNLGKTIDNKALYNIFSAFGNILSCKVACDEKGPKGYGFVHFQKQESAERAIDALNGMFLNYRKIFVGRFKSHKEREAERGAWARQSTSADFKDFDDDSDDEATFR
Oligonucleotide,7-mer Z-score
UUACUCC,-0.298
AUGUCGA,-0.0899
CACUGAA,-0.0464
AUCACCA,-0.0844
UUUCUAA,-0.32
UCACUUC,-0.405
GUCGCUG,-0.229
GCAACAA,0.369
UCUGUUC,-0.364
GCUAGCC,-0.354

# Sample 2
# Target: RNA binding protein fox-1 homolog 2, RRM domain, GST-SBP tag (RBFOX2, Homo sapiens, UniProt O43251-10, residues 100-194)
# Technique: RNA Bind-n-Seq
# Form: RNA
# Sample: in vitro
# Tested at: 365 nM
# Setting: natural RNA segment, single round, ends assumed
# Relative to: no-protein control
# Reading: higher = stronger binding
# All sequences stand within: GGGAGUUCUACAGUCCGACGAUC … UGGAAUUCUCGGGUGCCAA
# Residues (chain): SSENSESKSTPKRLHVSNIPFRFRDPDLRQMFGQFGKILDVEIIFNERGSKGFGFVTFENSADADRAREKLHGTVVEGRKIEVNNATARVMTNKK
Oligonucleotide,RBNS enrichment (R)
CAAGCUCUAAGACUCAAAGAAAUGGAACCUCUGCCCCAAACACUAGAGAAGCAGGAGAACAGACAAUCUGGUGUCCAGCCCUAAAGAACCACCAGGCGCUGUUAAGCAAU,0.25
AACUCCCAGGAAUACUGUACCUGUGUUUGGAGGAGCUUUCUCAGAGAAAUAGCAAGCAUGUCCUGUUGCUUAACGUGUCCUUGUGAAUUGCUUGGUUUUGAUUAAAGUCU,13.7
GGACCCUAAUGCAAGUUCCAUGUUCACAGAAAAUUCAUGCACUCUGCGCAAACAGGACGAAAUGGUUGAAGGUGUGAGCUACAUAUGCAUAUCUUUAAUCACACCUAUAC,0.477
UGUGAGGGAAAAAAAUAACUCUCAUUUGAUCAGACACUAAAUAUUUGGGGUAGGGAUUUCUGUCUUAUUUUCAAAUAGCCAGGGUUUUUCUUCAUUUUUUUGGUAUUUGC,0.361
GAGAGCAAAAAAGACACCGAUGGGGUUUUCAGCUCCUAACUGGACCCUCUUGCCCAGCCGGCUGCAAGUUUUGUAAGCGCGGACAGACACUGCUGAACCUUUCCUCUGGG,0.288
GAUAGGGGUCGUUAUUGUAGCAUAUUUGGUUUCUAAAUCACUGCUUAUUUUUAUUUGCAAUCUCUAAAAACAAAUUUUAUUUCAAUUACGUCUUACUGAAGAAGUCUUUC,0.306
UGAGCCAGGGCCUCUGGCCGGGCAUGCCCCUGCCUGCCCCGCCGUCUUGACCUGCCAGCUUCACUUCCAUCUGUGUUGCUAUUAGGUAUCUCUAACACCAGCACACUUCU,0.161
UAGUGCCAUCUCCUCAUGAUUGUAGAAGCAGCUGAAUGAGUUUCUUCAGAUUUAAAAUGAAUAGCUGGACUCUGCUGGCUCAGUCUCCUCUCCUUUUUAACACACUUUCU,0.522

# Sample 3
# Target: CCND2, cyclin fold, Cln2 fusion (human)
# Technique: yeast growth competition, sequencing
# Sample: yeast
# Setting: weak parent motif
# Relative to: not given
# Reading: higher = stronger binding
# Starting sequence: WEE1 docking peptide (human); HKTFRKLRLFDTP; partner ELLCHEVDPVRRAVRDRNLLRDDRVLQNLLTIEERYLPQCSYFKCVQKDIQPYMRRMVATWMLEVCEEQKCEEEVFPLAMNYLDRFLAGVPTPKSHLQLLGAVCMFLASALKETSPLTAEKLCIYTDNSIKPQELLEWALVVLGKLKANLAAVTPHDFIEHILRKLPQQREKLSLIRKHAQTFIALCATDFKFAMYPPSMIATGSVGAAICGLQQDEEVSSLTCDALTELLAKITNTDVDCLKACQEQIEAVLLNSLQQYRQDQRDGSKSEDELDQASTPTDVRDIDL
Variant,normalised enrichment score
H1M,0.0431
T12D,0.364
K6L,0.197
R5Y,-0.403
L7A,-0.169
P13H,-0.201
F4Y,-0.129

# Single results of other studies
Substance,target,test,test system,setting,how to read,quantity,value
"PhoQ, residues 284 288 289 292 302 303 TGYLSA","PhoP, residues 12 14 15 18 19 HLGGL (Escherichia coli, UniProt P23836)","Sort-seq, measured: YFP reporter",E. coli,"PhoQ-PhoP variant library, with: 10 µM Mg2+","relative to: high Mg2+ state, higher = stronger signaling",fold induction,12.5
